Experimental data pooled from the literature.
Parts stem from different laboratories: compare values within a part only. Positions count from the first letter of the parent shown.
UniProt P93830, sequence (whole entry, looked up): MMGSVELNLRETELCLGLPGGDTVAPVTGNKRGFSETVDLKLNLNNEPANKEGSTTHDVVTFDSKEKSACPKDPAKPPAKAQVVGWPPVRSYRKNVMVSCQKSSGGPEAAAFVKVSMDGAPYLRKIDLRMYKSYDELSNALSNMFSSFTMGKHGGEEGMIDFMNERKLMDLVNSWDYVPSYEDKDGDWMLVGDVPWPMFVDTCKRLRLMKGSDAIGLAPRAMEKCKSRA
UniProt Q9C5X0, sequence (whole entry, looked up): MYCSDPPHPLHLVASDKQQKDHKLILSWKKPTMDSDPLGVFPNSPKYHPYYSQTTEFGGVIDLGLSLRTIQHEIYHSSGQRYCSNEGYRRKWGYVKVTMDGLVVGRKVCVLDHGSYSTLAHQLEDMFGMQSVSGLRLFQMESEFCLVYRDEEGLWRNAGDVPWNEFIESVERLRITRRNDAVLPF
UniProt Q9FKM7, sequence (whole entry, looked up): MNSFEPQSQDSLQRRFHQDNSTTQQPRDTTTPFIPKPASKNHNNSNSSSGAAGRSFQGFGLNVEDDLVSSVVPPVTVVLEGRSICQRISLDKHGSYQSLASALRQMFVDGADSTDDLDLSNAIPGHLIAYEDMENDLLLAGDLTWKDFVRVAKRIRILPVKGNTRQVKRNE
UniProt Q9XED8, sequence (whole entry, looked up): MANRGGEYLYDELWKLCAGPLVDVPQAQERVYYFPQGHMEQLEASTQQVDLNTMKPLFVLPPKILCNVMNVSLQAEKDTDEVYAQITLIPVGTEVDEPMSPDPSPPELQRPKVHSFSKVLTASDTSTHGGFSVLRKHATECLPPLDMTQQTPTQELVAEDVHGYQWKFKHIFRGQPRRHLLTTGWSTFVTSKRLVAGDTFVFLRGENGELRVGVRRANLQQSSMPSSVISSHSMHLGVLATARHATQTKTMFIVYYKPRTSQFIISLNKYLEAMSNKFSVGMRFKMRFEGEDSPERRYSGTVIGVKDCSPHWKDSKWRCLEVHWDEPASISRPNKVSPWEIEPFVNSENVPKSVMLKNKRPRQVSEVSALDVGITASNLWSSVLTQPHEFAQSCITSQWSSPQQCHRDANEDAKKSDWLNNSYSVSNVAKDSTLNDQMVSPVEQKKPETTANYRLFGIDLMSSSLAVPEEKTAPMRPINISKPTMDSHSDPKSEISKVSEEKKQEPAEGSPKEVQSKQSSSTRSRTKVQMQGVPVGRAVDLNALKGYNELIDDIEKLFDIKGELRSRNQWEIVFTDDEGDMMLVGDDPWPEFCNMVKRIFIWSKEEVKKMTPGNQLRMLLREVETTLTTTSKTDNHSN
UniProt Q9C966, sequence (whole entry, looked up): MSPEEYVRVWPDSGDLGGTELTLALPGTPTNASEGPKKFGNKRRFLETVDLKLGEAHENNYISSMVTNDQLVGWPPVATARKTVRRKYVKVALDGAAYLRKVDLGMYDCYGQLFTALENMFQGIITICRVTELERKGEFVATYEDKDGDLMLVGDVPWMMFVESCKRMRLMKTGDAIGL
UniProt Q9ZTX8, sequence (whole entry, looked up): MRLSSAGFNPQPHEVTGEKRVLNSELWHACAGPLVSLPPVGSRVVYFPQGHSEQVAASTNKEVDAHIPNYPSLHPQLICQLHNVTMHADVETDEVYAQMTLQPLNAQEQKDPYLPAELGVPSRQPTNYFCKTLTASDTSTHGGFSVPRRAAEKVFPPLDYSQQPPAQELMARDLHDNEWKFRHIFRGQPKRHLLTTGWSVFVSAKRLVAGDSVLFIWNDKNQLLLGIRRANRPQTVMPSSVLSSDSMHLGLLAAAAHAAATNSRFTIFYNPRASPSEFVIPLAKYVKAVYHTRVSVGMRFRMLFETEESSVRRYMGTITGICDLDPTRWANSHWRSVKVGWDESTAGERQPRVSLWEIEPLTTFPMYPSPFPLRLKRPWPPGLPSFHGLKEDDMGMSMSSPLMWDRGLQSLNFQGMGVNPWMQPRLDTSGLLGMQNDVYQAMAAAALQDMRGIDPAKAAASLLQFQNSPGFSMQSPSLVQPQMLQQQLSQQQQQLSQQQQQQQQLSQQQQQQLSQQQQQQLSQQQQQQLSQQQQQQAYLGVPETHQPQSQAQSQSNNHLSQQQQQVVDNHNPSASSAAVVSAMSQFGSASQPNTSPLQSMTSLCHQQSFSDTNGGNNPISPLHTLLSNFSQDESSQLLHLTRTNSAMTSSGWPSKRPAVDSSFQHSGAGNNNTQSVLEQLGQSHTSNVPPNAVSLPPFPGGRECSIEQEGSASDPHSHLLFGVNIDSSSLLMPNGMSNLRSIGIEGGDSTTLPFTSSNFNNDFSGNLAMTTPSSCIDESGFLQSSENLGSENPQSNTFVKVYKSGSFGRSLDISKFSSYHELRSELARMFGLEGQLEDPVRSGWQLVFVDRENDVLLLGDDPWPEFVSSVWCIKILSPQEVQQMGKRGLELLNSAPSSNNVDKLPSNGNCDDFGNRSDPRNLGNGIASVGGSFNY
UniProt Q8RYC6, sequence (whole entry, looked up): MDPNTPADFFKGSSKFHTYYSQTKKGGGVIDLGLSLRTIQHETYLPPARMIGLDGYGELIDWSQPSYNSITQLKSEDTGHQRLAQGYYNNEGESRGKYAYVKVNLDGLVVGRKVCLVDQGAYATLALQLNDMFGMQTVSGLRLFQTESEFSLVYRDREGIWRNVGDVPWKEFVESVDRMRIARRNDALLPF

Set 1
Target: Hepatocyte nuclear factor 3-beta, forkhead domain (FOXA2, Homo sapiens, UniProt Q9Y261, residues 142-269)
Technique: protein-binding microarray
Molecule type: double-stranded DNA, one strand shown
Medium: in vitro
Tested at: not given
Setting: k-mer, scored over probes, only values ≥0.25
Direction: higher = stronger binding
Construct (chain): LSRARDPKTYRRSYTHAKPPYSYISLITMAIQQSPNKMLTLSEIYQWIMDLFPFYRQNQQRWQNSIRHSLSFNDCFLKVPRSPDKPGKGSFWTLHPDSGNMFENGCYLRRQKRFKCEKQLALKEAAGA
For `CGTAATTA`, the E-score was 0.296.
For `AGTATCTA`, the E-score was 0.362.
`ATATCTCA` gave an E-score of 0.331.
The E-score of `ATTAACTG` is reported as 0.271.
`AACGTACA` has an E-score of 0.283.
`ATGTATGC` has an E-score of 0.341.
With `CATAGTAA` the E-score was 0.271.
With `ACCACATA` the E-score was 0.346.

Set 2
Target: CCND2, cyclin fold, Cln2 fusion (human)
Technique: yeast growth competition, sequencing
Medium: yeast
Setting: weak parent motif
Baseline: not given
Direction: higher = stronger binding
Parent: viral docking peptide; KGVKRKLFAEDSS
`S12T`: “normalised enrichment score” 0.106.
For `K4S`, “normalised enrichment score” read 0.302.
For `V3E`, “normalised enrichment score” read 0.25.
`R5D`: “normalised enrichment score” 0.0514.
Under “normalised enrichment score”, `K6R` is recorded as 0.565.
Under “normalised enrichment score”, `R5K F8L` is recorded as 0.527.
`K6S` — result for “normalised enrichment score”: -0.163.
`E10P`: “normalised enrichment score” 0.278.
`V3L` — result for “normalised enrichment score”: 0.205.
For `K4C`, “normalised enrichment score” read 0.00334.
`K4D` — result for “normalised enrichment score”: -0.166.
Under “normalised enrichment score”, `R5Q` is recorded as 0.336.
For `K6P`, “normalised enrichment score” read 0.129.
Under “normalised enrichment score”, `A9S` is recorded as -0.0473.
`R5S` — result for “normalised enrichment score”: -0.137.
For `L7W`, “normalised enrichment score” read -0.577.
`F8Q`: “normalised enrichment score” 0.291.
For `V3T`, “normalised enrichment score” read 0.331.
`D11Y` — result for “normalised enrichment score”: 0.406.
For `R5L`, “normalised enrichment score” read -0.278.
For `A9Q`, “normalised enrichment score” read -0.082.
`E10M` — result for “normalised enrichment score”: -0.4.
`L7E` — result for “normalised enrichment score”: 0.323.
`K6M`: “normalised enrichment score” 0.228.
Under “normalised enrichment score”, `K4H` is recorded as -0.039.

Set 3
Target: TAR DNA-binding protein 43, full length, His tag (TARDBP, Homo sapiens, UniProt Q13148, residues 1-414)
Technique: RNA Bind-n-Seq
Molecule type: RNA
Medium: in vitro
Tested at: 20 nM
Setting: 6-mer, flanks averaged, single round
Added: 150 mM LiCl
Baseline: input library
Direction: higher = stronger binding
Under “6-mer enrichment (R)”, `GUCCGA` is recorded as 0.892.
For `AACUGC`, “6-mer enrichment (R)” read 0.842.
`GGAGAC`: “6-mer enrichment (R)” 0.957.
`CCCAGC` — result for “6-mer enrichment (R)”: 0.972.
`GCCUCC` — result for “6-mer enrichment (R)”: 1.
For `UUUUCA`, “6-mer enrichment (R)” read 1.09.
`CGAUAG` — result for “6-mer enrichment (R)”: 0.851.
For `CUCUUA`, “6-mer enrichment (R)” read 0.909.

Set 4
Target: Interferon regulatory factor 7, full length, phosphomimetic (IRF7, Homo sapiens, UniProt Q92985, residues 1-503, S471D/S472D/S475D/S476D/S477D/S483D/S484D/S487D)
UniProt Q92985, sequence (whole entry, unmodified, looked up): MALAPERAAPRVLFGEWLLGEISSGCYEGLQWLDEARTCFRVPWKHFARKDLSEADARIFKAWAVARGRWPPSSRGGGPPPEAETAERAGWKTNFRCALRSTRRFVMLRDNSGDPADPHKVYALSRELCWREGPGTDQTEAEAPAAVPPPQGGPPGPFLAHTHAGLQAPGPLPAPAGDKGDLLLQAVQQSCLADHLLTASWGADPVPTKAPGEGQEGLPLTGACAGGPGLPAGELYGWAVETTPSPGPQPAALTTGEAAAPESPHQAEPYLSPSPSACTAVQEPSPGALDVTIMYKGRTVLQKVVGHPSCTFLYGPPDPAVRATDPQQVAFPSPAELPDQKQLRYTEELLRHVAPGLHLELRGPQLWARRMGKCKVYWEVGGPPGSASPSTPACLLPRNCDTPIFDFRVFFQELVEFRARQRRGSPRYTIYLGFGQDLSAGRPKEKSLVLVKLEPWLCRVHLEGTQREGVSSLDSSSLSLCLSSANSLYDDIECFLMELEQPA
Technique: protein-binding microarray
Molecule type: double-stranded DNA, one strand shown
Medium: in vitro
Tested at: 2200 nM top
Setting: 60-bp whole probe
Added: salmon DNA 0.4 mg/ml
Baseline: random background probes
Direction: higher = stronger binding
Constant ends, left off below: GCCTAGCAC … GTCTTGATTCGCTTGACGCTGCTG
`GACGATTTCAGAGTGGAGACGTGCTAG` — result for “fitted relative affinity”: -0.0442 z-score.
For `GACGAACTGAATATCGAGACGTGCTAG`, “fitted relative affinity” read -0.0634 z-score.
For `GACGGACTGCTACTGCTTACGTGCTAG`, “fitted relative affinity” read -0.0516 z-score.
`TTAGCTATCGGGTATCGATTAGTGCTA` — result for “fitted relative affinity”: 0.19 z-score.
`ATAGGTTTCTATATTTGCTTGTGCTAG` — result for “fitted relative affinity”: 1.79 z-score.
Under “fitted relative affinity”, `TTAGGTTCCGGTGTCGGTTAGTGCTAG` is recorded as 0.466 z-score.
`TCAGTTTCTCCTTTCGGACTGTGCTAG` — result for “fitted relative affinity”: 5.95 z-score.
`TTTGATATCAGTATCGATTAGTGCTAG` — result for “fitted relative affinity”: 0.402 z-score.

Set 5
Molecule: B1 (IAA13)
Technique: two-hybrid
Direction: higher = firmer interaction
B1: IAA13 (Arabidopsis thaliana, UniProt Q38831); chain MITELEMGKGESELELGLGLSLGGGTAAKIGKSGGGGAWGERGRLLTAKDFPSVGSKRAADSASHAGSSPPRSSSQVVGWPPIGSHRMNSLVNNQATKSAREEEEAGKKKVKDDEPKDVTKKVNGKVQVGFIKVNMDGVAIGRKVDLNAHSSYENLAQTLEDMFFRTNPGTVGLTSQFTKPLRLLDGSSEFVLTYEDKEGDWMLVGDVPWRMFINSVKRLRVMKTSEANGLAARNQEPNERQRKQPV
For ARF9 519-638 (Arabidopsis thaliana, UniProt Q9XED8); weak activation fusion; baseline: out of 2 tests: positive tests read 2.
The positive tests was 0 (IAA32 (Arabidopsis thaliana, UniProt Q8RYC6); baseline: out of 4 tests).
It gave 4 for positive tests (IAA15 (Arabidopsis thaliana, UniProt Q9C966); baseline: out of 4 tests).
The positive tests was 2 (IAA17 (Arabidopsis thaliana, UniProt P93830); baseline: out of 4 tests).
It gave 2 for positive tests (IAA34 (Arabidopsis thaliana, UniProt Q9C5X0); baseline: out of 4 tests).
ARF6 790-935 (Arabidopsis thaliana, UniProt Q9ZTX8); baseline: out of 4 tests — positive tests: 4.
For IAA33 (Arabidopsis thaliana, UniProt Q9FKM7); baseline: out of 2 tests: positive tests read 0.

Repeated from above (set 2):
`F8Q`: “normalised enrichment score” 0.291.
For `K6P`, “normalised enrichment score” read 0.129.
For `K4C`, “normalised enrichment score” read 0.00334.
Under “normalised enrichment score”, `K4H` is recorded as -0.039.
`S12T`: “normalised enrichment score” 0.106.
`K6M`: “normalised enrichment score” 0.228.
Under “normalised enrichment score”, `R5Q` is recorded as 0.336.
For `V3T`, “normalised enrichment score” read 0.331.
For `V3E`, “normalised enrichment score” read 0.25.
